Results of several laboratories.
Each line is one published result; not all experiments were run side by side. ± gives the spread as reported.

SMILES | target or system | test | system | conditions | how to read | quantity | result
C=C(NC(=O)c1csc(-c2nc3c(cc2O)-c2nc(cs2)C(=O)NC(C(C)O)C(=O)NC(=C(C)OC)c2nc(cs2)C(=O)NC2c4nc(cs4)C(=O)NC(COC(=O)c4c5c6c(cccc6n4O)COC(=O)C(OC4CC(C)(O)C(N(C)C)C(C)O4)C2OC5)c2nc-3cs2)n1)C(N)=O (centres unmarked) | Streptococcus pneumoniae | – | -4, immunocompromised mice, lung | 4 mg/kg/day once daily, 24 h post-dose | – | lung bacterial load | 5.49 log10 CFU/lung
CCN(CC)CC(=O)Nc1cccc(-n2cc(-c3ccc4ccc(-c5cn(-c6cccc(NC(=O)CN(CC)CC)c6)nn5)cc4c3)nn2)c1 | RCC4 | PCR angiogenesis array, refers to: MMP14 | – | 5 x IC50, 6 h, normoxia | baseline: untreated | fold regulation | -1.62
Nc1nc(-c2ccc(F)cc2F)nc2[nH]nc(Nc3ccc(F)cc3)c12 | coxsackievirus B3 | viral cytopathic effect | HeLa | – | – | IC50 | 20.9 µM
Cc1noc(C)c1-c1cc2c(N3CCC[C@H](C(=O)NCc4ccc(OC(F)(F)F)cc4)C3)ncnc2[nH]1 | NCI-H2228 | cell growth or viability, MTT | – | 1 µg/mL, 72 h | – | inhibition | 70.7%
COc1ccc(Nc2n[nH]c3nc(-c4ccccc4)nc(N)c23)cc1 | rhinovirus B42 | viral cytopathic effect | HeLa | – | – | IC50 | 0.01 µM
Nc1ncc(-c2cc(-c3cnn(CC(F)(F)F)c3)ncc2F)nc1C(=O)NC1CNCC(F)C1 (centres unmarked) | EPHA2 | KINOMEscan | – | 1 µM | baseline: DMSO control | remaining binding | 95%
N#Cc1ccc(Nc2n[nH]c3nc(-c4ccccc4)nc(N)c23)cc1 | coxsackievirus B3 | viral cytopathic effect | HeLa | – | – | IC50 | 5.2 µM
CC(C)(C)NCC(SS(=O)(=O)O)c1ccccc1 (centres unmarked) | Schistosoma mansoni | – | infected mice | 100 mg/kg single, day 42, perfusion day 56 | baseline: vehicle | male worm burden reduction | 51%
CC(C)c1ccc(N(C)c2ccc3c(c2)OCC[C@H]3CNc2cnccc2C(=O)O)cc1 | SW480 | cell growth or viability, ATP luminescence | – | 7 days | – | IC50 | 0.00979 µM
CN1CCC[C@]1(C)/C=C/S(=O)(=O)NC(=O)Nc1c2c(cc3c1CCC3)CCC2 | – | – | human, whole blood ex vivo | 400 mg single dose, 3 h, single ascending dose, added: LPS and ATP | – | IL-1β inhibition | 99.5%
C=CC(=O)Nc1cccc(Cn2ncc3cnc(Nc4cnn(CCOC)c4)nc32)c1 | CLK4 human | binding, KINOMEscan | – | 100 nM | lower = stronger binding | percent of control | 100%
O=C(NCc1ccc(OC(F)(F)F)cc1)[C@H]1CCCN(c2ncnc3[nH]c(-c4cccnc4)cc23)C1 | NCI-H2228 | cell growth or viability, MTT | – | 0.2 µg/mL, 72 h | – | inhibition | 58.4%
COc1ccc(C(=O)CCc2cc(C(CCc3ccc(O)cc3OC)c3ccc(O)cc3)c(O)cc2OC)cc1 (racemic) | – | – | human blood | 0.3 µM, added: A23187 | – | 4-HDHA level | 31 ± 8 pg/mL
Cc1ncsc1-c1ccc(C(C)NC(=O)C2CC(O)CN2C(=O)C(NC(=O)CCCCCCCCCCN2CCCC(Nc3ncc(Cl)c(Nc4ccccc4S(=O)(=O)C(C)C)n3)C2)C(C)(C)C)cc1 (centres unmarked) | 22Rv1 | RNA-seq, refers to: NAV1 | – | concentration not given | baseline: DMSO | log2 fold change | -1.3
Nc1ncnc2[nH]nc(Nc3ccc(F)c(F)c3)c12 | coxsackievirus B3 | viral cytopathic effect | HeLa | – | – | IC50 | 30.9 µM
Cc1cc(N)ccc1-c1cc2c(N3CCC[C@H](C(=O)NCc4ccc(OC(F)(F)F)cc4)C3)ncnc2[nH]1 | NCI-H2228 | cell growth or viability, MTT | – | 0.008 µg/mL, 72 h | – | inhibition | 42.4%
COc1cc(O)ccc1CCC(c1ccc(O)cc1)c1cc2c(c(C)c1O)OC(c1ccc(O)cc1)CC2 (mixture of isomers) | – | – | human blood | 3 µM, added: A23187 | – | PGD2 level | 3 ± 2 pg/mL
COC1CN([C@H]2CC[C@H]([C@@]3(C)Oc4c(Cl)cc(C(=O)NCc5c(SC)cc(C)[nH]c5=O)c(C)c4O3)CC2)C1 | – | RNA-seq, refers to: FZD7 mouse homolog | mouse, HT-1376 xenograft, whole blood | dose not given | baseline: vehicle | log2 fold change | 0.0586
CNS(=O)(=O)Nc1nccc(Cc2c(C)c3ccc(Oc4ncccc4F)cc3oc2=O)c1F | HT | cell viability, CellTiter-Glo | – | 7 days | – | IC50 | > 1 µM
C=CC(=O)N1[C@@H](c2ccc3c(c2)OCO3)c2[nH]c3ccccc3c2C[C@H]1C(=O)N1CCN(C)CC1 | human cyclin E1 wild type-3xFLAG:CDK2 | co-IP with TMT proteomics, refers to: DDX17 | – | concentration not given, Q92841 | baseline: wild type DMSO | relative co-enrichment | 86%
CC(=O)[O-].O.O.O.O.[Mn+2].[O-]c1ccc(Br)cc1C=NCCN1CCOCC1 | – | hydroxyl radical scavenging | – | 200 µM | – | inhibition | 44.7%
Cc1cc(NC2CCN(C)CC2)ccc1-c1cc2c(N3CCC[C@H](C(=O)N4CCCC4)C3)ncnc2[nH]1 | NCI-H2228 | cell growth or viability, MTT | – | 0.04 µg/mL, 72 h | – | inhibition | 10%
CN1CCCNC(=O)c2cccc(c2)C(=O)NCCCN(C)CCCNc2cccc3c2C(=O)c2cccc(c2C3=O)NCCC1 | SAS | RNA-Seq, refers to: TADA3 mRNA | – | 1 µM, 6 h | baseline: untreated cells | log2 fold change | 0.523
